Measurements from different studies.
Each numbered part is a random draw from the data of one study; scales do not carry over between parts. Positions count from the first letter of the parent shown.

Series 1
Target: CCNB1, cyclin fold, Cln2 fusion (human)
Technique: yeast growth competition, sequencing
Sample: yeast
Notes: weak parent motif
Relative to: not given
Reading: higher = stronger binding
Parent: CDKN1B docking peptide (human); PSACRNLFGPVDH
Variant	normalised enrichment score
PSACRNLTGPVDH [F8T]	0.0402
PSACRWLFGPVDH [N6W]	0.00689
TSACRNLFGPVDH [P1T]	0.937
PSCCRNLFGPVDH [A3C]	0.818
PSACRNLFNPVDH [G9N]	0.289
PSACRSLFGPVDH [N6S]	0.0344
PSACRCLFGPVDH [N6C]	0.584
PSKCRNLFGPVDH [A3K]	0.0194
ESACRNLFGPVDH [P1E]	0.196
PSAMRNLFGPVDH [C4M]	0.156

Series 2
Target: RING finger protein unkempt homolog, zinc fingers 1-6, GST-SBP tag (UNK, Homo sapiens, UniProt Q9C0B0, residues 30-357)
Chain of UniProt Q9C0B0 (30-357, looked up): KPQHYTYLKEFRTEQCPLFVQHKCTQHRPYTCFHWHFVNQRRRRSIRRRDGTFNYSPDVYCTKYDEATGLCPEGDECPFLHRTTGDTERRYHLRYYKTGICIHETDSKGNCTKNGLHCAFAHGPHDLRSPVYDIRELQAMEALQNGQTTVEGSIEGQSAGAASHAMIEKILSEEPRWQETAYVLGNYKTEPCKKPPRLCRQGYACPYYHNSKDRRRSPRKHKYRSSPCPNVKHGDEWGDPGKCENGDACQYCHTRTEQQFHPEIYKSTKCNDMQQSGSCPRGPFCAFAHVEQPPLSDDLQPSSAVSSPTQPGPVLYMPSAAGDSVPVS
Technique: RNA Bind-n-Seq
Molecule type: RNA
Sample: in vitro
Tested at: not given
Notes: RNA with constant flanks, human and mouse sites, ends assumed
Relative to: input RNA pool
Reading: higher = stronger binding
All sequences stand within: GGGAGUUCUACAGUCCGACGAUC … CAACAGAGGAUUGAGCAUCA
Oligonucleotide	bound/input enrichment [ratio]
UAUUUUUAUAAUUUUUACUGAUGCUCAGUAACCAUGAAAAACUGUGCACAUUCAUGUACUAAUAGAUCUGUACCUAUCUAUCUCUGUACGCAUAUAUACAGUUCACUGUAGAAAACCACA	1.62
UGAAUUUUCAAUGUUUAAUUGACAUGGAUCGGAUCUUAGCAUGGUCUUUUCUGUGACUGCUAGCACUGUAUUGUAAUUUUUCCAUUUUAAGCCUUUUCAUUGCACCUCCAGCCCCUCUGC	2.38
AAAAUAAAUAAUCUCAUCCCCAAACUGUAGUAAUUGUUACAAUUUUCUAUUUAAAAAAUGAAUAGUACAUGCAGAAAUUGACCUGAUUUCCAUUUGCAACAGGAAGACACUGGCUUUACA	0.875
CUCGAUUAUCUCAAGAGAGAGUGUGAAGCAAAGAGUGAAGUGAUGUUUUUUGCAGAAGCUACUAGUCACUUGGAAGAGAAGAAGAAAAAACGAAAAAACAGGAAAAGGAUGAUUUUAACA	0.337
CGUUCUCUGCCACCUCCUUCCCCUGCCCACUUGGCUGCUUUAAGUGUUGCAGUCAUUGAAUUAGCAAAAGAACAUGGAAUAACAGAUGAUGACCUCAGAGUCCGUCAGGAAAUUGUGGAG	1.16
CUUGAUUAUCUCAAGAGGGAAUGCGAGGCAAAAAGUGAAGUUAUGUUUUUUGCUGAUGCUACUAGCCACUUGGAAGAGAAGAAGAGGAAGAGGAAAAAGAGGGAGAAGUUGAUUCUAACG	0.303
GAAGUGGUGUCACCAUCUCAGUCCGUGACUGGCAGUGCUGGUCACACACCUUACUAUCAAUCUCCUACUGACGAGAAAUCCAGUCAUCUCCCUACAGAAGUCAUUGAAAAACCACCAGCA	0.212
UGGCUACUAUAAAACUAUGUACCACUCUCAGAAUAUUCUUAGGCUUUUUUUUUUUCAAGUUAUAGAUUUGCUUAAAGUGAGGUUUUUUGGUGUGUGCUUUUUUGUUGUCUUUUGACCCUU	3.52

Series 3
Target: Sal-like protein 4, full length isoform A (SALL4, Homo sapiens, UniProt Q9UJQ4, residues 1-1053)
Chain of UniProt Q9UJQ4 (whole entry, looked up): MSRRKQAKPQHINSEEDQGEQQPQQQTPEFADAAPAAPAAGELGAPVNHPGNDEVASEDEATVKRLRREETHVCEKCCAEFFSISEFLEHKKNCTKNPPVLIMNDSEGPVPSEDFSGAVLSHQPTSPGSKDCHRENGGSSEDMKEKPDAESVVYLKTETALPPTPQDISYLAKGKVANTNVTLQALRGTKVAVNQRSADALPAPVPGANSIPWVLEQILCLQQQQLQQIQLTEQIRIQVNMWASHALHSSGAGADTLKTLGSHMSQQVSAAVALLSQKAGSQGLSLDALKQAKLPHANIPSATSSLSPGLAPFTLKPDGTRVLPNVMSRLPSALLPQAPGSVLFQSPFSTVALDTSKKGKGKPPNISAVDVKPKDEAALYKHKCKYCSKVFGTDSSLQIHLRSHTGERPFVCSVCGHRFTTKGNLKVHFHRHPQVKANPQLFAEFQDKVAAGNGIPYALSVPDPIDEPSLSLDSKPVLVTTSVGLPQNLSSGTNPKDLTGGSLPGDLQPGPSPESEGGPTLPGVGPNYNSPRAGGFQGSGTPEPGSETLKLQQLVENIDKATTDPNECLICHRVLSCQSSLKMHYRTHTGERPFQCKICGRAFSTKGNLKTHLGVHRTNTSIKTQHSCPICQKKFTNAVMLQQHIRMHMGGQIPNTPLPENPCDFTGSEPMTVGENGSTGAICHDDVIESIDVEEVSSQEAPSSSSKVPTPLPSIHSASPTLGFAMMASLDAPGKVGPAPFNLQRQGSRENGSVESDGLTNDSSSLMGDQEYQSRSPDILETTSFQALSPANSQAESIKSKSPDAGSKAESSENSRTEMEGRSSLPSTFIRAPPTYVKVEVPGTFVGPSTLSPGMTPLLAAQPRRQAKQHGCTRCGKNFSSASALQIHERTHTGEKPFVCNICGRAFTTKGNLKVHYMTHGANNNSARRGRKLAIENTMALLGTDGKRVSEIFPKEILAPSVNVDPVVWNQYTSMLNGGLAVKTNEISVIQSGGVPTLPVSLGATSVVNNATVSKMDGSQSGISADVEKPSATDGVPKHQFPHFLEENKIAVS
Technique: universal PBM
Molecule type: double-stranded DNA, one strand shown
Sample: in vitro
Tested at: 600 nM
Notes: 8-mer, flanks averaged, mean of replicates
Reading: higher = stronger binding
Oligonucleotide	E-score
GGGGACTA	-0.0967
CTTCATAC	0.205
ATCCGGGC	-0.348
ATGAGCCG	-0.11
AAATCTAA	0.226
CAATTAAG	0.153
CCGTAAAA	0.123
AGGGTTAT	0.151
AGGCTCAG	-0.173
CAACAAAG	0.0227
GACCCGTA	-0.246
ACTATGTC	0.109
AATACGAT	0.291
CCGGGAAC	-0.244
GAACACGA	0.0845
CTAATTAC	0.135
AGGCGCAG	-0.338
CGGATGTC	-0.265
CTAAATCA	0.105
CGTTCTGA	-0.0974
ATCGACAT	0.181
CAAGCTTA	-0.127
CAGAGTGG	-0.248

Series 4
Target: ABI1, truncated, D143A, DHFR fusion (Arabidopsis thaliana)
Technique: DHFR PCA, deep sequencing
Sample: yeast
Notes: methotrexate growth selection, single substitutions
With: (+)-ABA 2500 µM
Relative to: wild-type fitted maximum
Reading: higher = stronger binding
Parent: PYL1, truncated, DHFR fusion (Arabidopsis thaliana); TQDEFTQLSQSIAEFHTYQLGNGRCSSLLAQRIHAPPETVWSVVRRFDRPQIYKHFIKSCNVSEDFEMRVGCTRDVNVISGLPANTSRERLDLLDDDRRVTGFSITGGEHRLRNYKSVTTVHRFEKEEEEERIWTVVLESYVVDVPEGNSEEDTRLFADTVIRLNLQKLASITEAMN
Variant	relative binding score [%]
L164S	99.6
Q10M	92.6
E131R	100
D97T	103
L29Y	75.7
E147R	93.8
E125I	108
V100K	64.2
G148R	90.3
T154N	25.7
P83H	59.9
Q10F	95.1
A84G	90.5
C72L	93.6

Series 5
Target: RNA binding protein fox-1 homolog 2, RRM domain, GST-SBP tag (RBFOX2, Homo sapiens, UniProt O43251-10, residues 100-194)
Technique: RNA Bind-n-Seq
Molecule type: RNA
Sample: in vitro
Tested at: 365 nM
Notes: natural RNA segment, single round, ends assumed
Relative to: no-protein control
Reading: higher = stronger binding
All sequences stand within: GGGAGUUCUACAGUCCGACGAUC … UGGAAUUCUCGGGUGCCAA
Oligonucleotide	RBNS enrichment (R)
UGAGCAUCCUCUCACCAGACUAUGCCCUCCUGGAGGGGCUGGGAAUAUAGCAAGAACGAAAAGACUGUGCAAGGCCUAGAGCCAGCAAAGAUGCUGAUGUAGCCAGGCCA	1.07
CCUGGGGGGGGCAGUGGCCCUCAGCUCUGCCCGCUGGAGCGGUUGAGUGCAGAAGGGUGCGCCUCUUCCCUCUACCCCCGCACCACCUGCUGUGUGCCAGCCUGAGACGG	0.55
GGCAAUAUGGUUUGUAAAAUACAGAAACACUGCCCAAUUGUGAUGUUGUCAAUGGGCUCCUGAUGCCCAUAUUCUGGGGAACCUUAGAUACUGCCAUAGAAGCUAAAAGC	0.539
GAUACUCACCCAUGCAUAGCUACCCAGGGUUAAUUGGUAGCUGGGAUAUCUUUUCGCCUCAGACAGCUCUUCGAUUGCUCAUACAGAACAAUUCUGCCGGUGCUGAAGUA	0.466
AUGCACUUGACGAGUGCUGAAAACUUCUUAAGUGGUUUAAAUUUUGUUUUCAUUGUUUGCAGCGGAUUACUGGACAUCAAAGAUUCAUUGCACUUAUGAACAAGGAACCU	0.537
UAAUCUGAUGUAUAAUGUAAUGUUUUUAUUUCAAUUGUUUAUAUGGAUAAUCUGAGCAGGUACAUUUCUGAUUCUGAUUGCUAUCAGCAAUGCCCCAAACUUUCUCAUAA	0.486
AUCUCAAUUGAAAGCUUUUAAAAUGUAGAAACUUAAACACACCUUCCUGUGGAGGCUGAGAUGAAAACUAGGGCUCAUUUUCCUGACAUUUGUUUAUUUUUUGGAAGAGA	0.387
GCAAGCGUGCAGAAACUAACUCCUCUCUCACAAAGGCUUAUAAAAUUGGUGUGUCCUAUGGAAAUGGAAAGAAAGAUAGAUAAGACAUUUCUGUCAAUUUUCAAGAACUU	0.759

Series 6
Target: Histone acetyltransferase KAT6A, winged helix 2, GST fusion (KAT6A, Homo sapiens, UniProt Q92794, residues 85-181)
Technique: protein binding microarray
Molecule type: double-stranded DNA, one strand shown
Sample: in vitro
Tested at: not given
Notes: 8-mer, flanks averaged, mean of 2 arrays, mostly near background
Relative to: not given
Reading: higher = stronger binding
Construct (chain): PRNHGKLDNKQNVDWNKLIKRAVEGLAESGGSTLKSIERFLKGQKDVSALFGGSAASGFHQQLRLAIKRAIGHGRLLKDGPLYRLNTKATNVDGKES
Oligonucleotide	E-score
CCGGCGTC	0.13
CCTGAAAG	0.147
CTCAGGGA	-0.0702
CGTAGTAC	-0.0516
CTCCACCC	0.131
CATGCGAA	0.172
GCATTGAA	0.137
CAGCTAAG	0.119
GAGCGGGA	0.112
CCGGATTA	0.112
AGTTATTC	-0.0679
TAGGAGCA	-0.0731
AGCGCGAG	0.013
CACGCTTC	-0.0971
CCTCCCAA	0.0547
ATTCCTTC	0.0875
AACGAGGA	0.0145
AGGCCGGC	0.0498
AGACGGGA	0.00279
ATTTCACG	0.0609
CCATCATC	-0.158
AACAGTTA	-0.0404
CCCTATAC	-0.0845
AATGAGCA	0.0773
CATGAAGC	0.0644

Repeated from above (series 5):
Oligonucleotide	RBNS enrichment (R)
UGAGCAUCCUCUCACCAGACUAUGCCCUCCUGGAGGGGCUGGGAAUAUAGCAAGAACGAAAAGACUGUGCAAGGCCUAGAGCCAGCAAAGAUGCUGAUGUAGCCAGGCCA	1.07
CCUGGGGGGGGCAGUGGCCCUCAGCUCUGCCCGCUGGAGCGGUUGAGUGCAGAAGGGUGCGCCUCUUCCCUCUACCCCCGCACCACCUGCUGUGUGCCAGCCUGAGACGG	0.55
GGCAAUAUGGUUUGUAAAAUACAGAAACACUGCCCAAUUGUGAUGUUGUCAAUGGGCUCCUGAUGCCCAUAUUCUGGGGAACCUUAGAUACUGCCAUAGAAGCUAAAAGC	0.539
GAUACUCACCCAUGCAUAGCUACCCAGGGUUAAUUGGUAGCUGGGAUAUCUUUUCGCCUCAGACAGCUCUUCGAUUGCUCAUACAGAACAAUUCUGCCGGUGCUGAAGUA	0.466
AUGCACUUGACGAGUGCUGAAAACUUCUUAAGUGGUUUAAAUUUUGUUUUCAUUGUUUGCAGCGGAUUACUGGACAUCAAAGAUUCAUUGCACUUAUGAACAAGGAACCU	0.537
UAAUCUGAUGUAUAAUGUAAUGUUUUUAUUUCAAUUGUUUAUAUGGAUAAUCUGAGCAGGUACAUUUCUGAUUCUGAUUGCUAUCAGCAAUGCCCCAAACUUUCUCAUAA	0.486
AUCUCAAUUGAAAGCUUUUAAAAUGUAGAAACUUAAACACACCUUCCUGUGGAGGCUGAGAUGAAAACUAGGGCUCAUUUUCCUGACAUUUGUUUAUUUUUUGGAAGAGA	0.387
GCAAGCGUGCAGAAACUAACUCCUCUCUCACAAAGGCUUAUAAAAUUGGUGUGUCCUAUGGAAAUGGAAAGAAAGAUAGAUAAGACAUUUCUGUCAAUUUUCAAGAACUU	0.759
